# Results gathered from unrelated publications.
# Each numbered part is a random draw from the data of one study; scales do not carry over between parts. Substitutions count along the parent as printed.
# Sequence of UniProt P61077 (whole entry, looked up): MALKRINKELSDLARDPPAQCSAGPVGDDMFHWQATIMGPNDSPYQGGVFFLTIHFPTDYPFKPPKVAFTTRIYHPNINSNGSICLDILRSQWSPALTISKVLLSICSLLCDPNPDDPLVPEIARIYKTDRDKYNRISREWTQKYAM

# Block 1
# Partner: ARF16 570-670 (Arabidopsis thaliana, UniProt Q93YR9)
# Technique: two-hybrid
# Baseline: out of 4 tests
# Reading: higher = firmer interaction
# B1: ARF13 (Arabidopsis thaliana, UniProt Q9FX25); chain MENNGEMNAQPELSVDITKTYMYEKLWNICAGPLCVLPKPGEKVYYFPQGHIELIENSTRDELDHIRPIFDLPSKLRCRVVAIDRKVDKNTDEVYAQISLMPDTTEVMTHNTTMDTRRPIVYFFSKILTASDVSLSGGLIIPKQYAIECFPPLDMSQPISTQNLVAKDLYGQEWSFKHVFRGTPQRHMFTSGGGWSVFATTKRLIVGDIFVLLRGENGELRFGIRRAKHQQGHIPSSVISANCMQHGVIASVVNAFKTKCMFNVVYKPSSSQFVISYDKFVDAMNNNYIVGSRFRMQFEGKDFSEKRYDGTIIGVNDMSPHWKDSEWRSLKVQWDELSPFLRPNQVSPWDIEHLIPSSDISQSSLKKKKHWLQLNEIGATLSNLWTCQEIGQRSMNSPISVPEFSYPNAIEDSKFLSGLLLNHSLLAIPNENYNSDQMIQPRKEDITTEATTSCLLFGVDLTKVSKSKDSICPIESCKKSLPQDKKFDQTQPLRSPKEVQSTEFNFTRSRIKVHMQGVAISRAVDLTAMHGYNQLIQKLEELFDLKDELRTRNQWEIVFTNNEGAEMLVGDDPWPEFCNMAKRIFICSKEEIKKMKLKNKFFQPESKALTSSDVPPNVTDN
# B2: IAA34 (Arabidopsis thaliana, UniProt Q9C5X0); chain MYCSDPPHPLHLVASDKQQKDHKLILSWKKPTMDSDPLGVFPNSPKYHPYYSQTTEFGGVIDLGLSLRTIQHEIYHSSGQRYCSNEGYRRKWGYVKVTMDGLVVGRKVCVLDHGSYSTLAHQLEDMFGMQSVSGLRLFQMESEFCLVYRDEEGLWRNAGDVPWNEFIESVERLRITRRNDAVLPF
# B3: IAA28 (Arabidopsis thaliana, UniProt Q9XFM0); chain MEEEKRLELRLAPPCHQFTSNNNINGSKQKSSTKETSFLSNNRVEVAPVVGWPPVRSSRRNLTAQLKEEMKKKESDEEKELYVKINMEGVPIGRKVNLSAYNNYQQLSHAVDQLFSKKDSWDLNRQYTLVYEDTEGDKVLVGDVPWEMFVSTVKRLHVLKTSHAFSLSPRKHGKE
# B4: IAA32 (Arabidopsis thaliana, UniProt Q8RYC6); chain MDPNTPADFFKGSSKFHTYYSQTKKGGGVIDLGLSLRTIQHETYLPPARMIGLDGYGELIDWSQPSYNSITQLKSEDTGHQRLAQGYYNNEGESRGKYAYVKVNLDGLVVGRKVCLVDQGAYATLALQLNDMFGMQTVSGLRLFQTESEFSLVYRDREGIWRNVGDVPWKEFVESVDRMRIARRNDALLPF
# B5: ARF6 790-935 (Arabidopsis thaliana, UniProt Q9ZTX8); chain SENPQSNTFVKVYKSGSFGRSLDISKFSSYHELRSELARMFGLEGQLEDPVRSGWQLVFVDRENDVLLLGDDPWPEFVSSVWCIKILSPQEVQQMGKRGLELLNSAPSSNNVDKLPSNGNCDDFGNRSDPRNLGNGIASVGGSFNY
# B6: ARF5 788-902 (Arabidopsis thaliana, UniProt P93024); chain ATPRVRTYTKVQKTGSVGRSIDVTSFKDYEELKSAIECMFGLEGLLTHPQSSGWKLVYVDYESDVLLVGDDPWEEFVGCVRCIRILSPTEVQQMSEEGMKLLNSAGINDLKTSVS
# B7: IAA17 (Arabidopsis thaliana, UniProt P93830); chain MMGSVELNLRETELCLGLPGGDTVAPVTGNKRGFSETVDLKLNLNNEPANKEGSTTHDVVTFDSKEKSACPKDPAKPPAKAQVVGWPPVRSYRKNVMVSCQKSSGGPEAAAFVKVSMDGAPYLRKIDLRMYKSYDELSNALSNMFSSFTMGKHGGEEGMIDFMNERKLMDLVNSWDYVPSYEDKDGDWMLVGDVPWPMFVDTCKRLRLMKGSDAIGLAPRAMEKCKSRA
# B8: ARF7 1030-1164 (Arabidopsis thaliana, UniProt P93022); chain PAQTQRMRTYTKVQKRGSVGRSIDVNRYRGYDELRHDLARMFGIEGQLEDPQTSDWKLVYVDHENDILLVGDDPWEEFVNCVQSIKILSSAEVQQMSLDGNFAGVPVTNQACSGGDSGNAWRGHYDDNSATSFNR
# Target sequence (chain): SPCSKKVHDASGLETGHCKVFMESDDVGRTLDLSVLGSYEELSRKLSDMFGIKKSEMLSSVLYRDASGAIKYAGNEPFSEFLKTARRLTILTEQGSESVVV
Molecule,positive tests
B1 (ARF13),0
B2 (IAA34),1
B3 (IAA28),0
B4 (IAA32),2
B5 (ARF6 790-935),0
B6 (ARF5 788-902),0
B7 (IAA17),0
B8 (ARF7 1030-1164),0

# Block 2
# Target: ATP-dependent RNA helicase DDX3X, helicase core (DDX3X, Homo sapiens, UniProt O00571, residues 132-607)
# Sequence of UniProt O00571 (132-607, looked up): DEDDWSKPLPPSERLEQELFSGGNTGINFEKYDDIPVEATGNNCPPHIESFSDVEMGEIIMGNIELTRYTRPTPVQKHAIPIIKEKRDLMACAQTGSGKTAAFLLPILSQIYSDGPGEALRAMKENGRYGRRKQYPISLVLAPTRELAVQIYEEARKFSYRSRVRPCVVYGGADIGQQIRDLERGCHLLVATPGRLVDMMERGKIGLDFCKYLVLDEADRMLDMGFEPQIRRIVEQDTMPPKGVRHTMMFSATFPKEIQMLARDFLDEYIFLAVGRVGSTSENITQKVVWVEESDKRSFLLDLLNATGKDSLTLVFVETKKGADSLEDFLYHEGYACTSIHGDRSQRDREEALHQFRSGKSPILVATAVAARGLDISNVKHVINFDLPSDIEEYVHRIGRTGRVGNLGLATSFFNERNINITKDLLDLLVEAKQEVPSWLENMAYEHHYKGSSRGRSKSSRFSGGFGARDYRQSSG
# Technique: RNA Bind-n-Seq
# Molecule type: RNA
# Sample: in vitro
# Concentration: not given
# Notes: 4-mer, random 30-nt RNA, single round
# Added: RocA, ADP, phosphate
# Baseline: input library
# Reading: higher = stronger binding
Oligonucleotide,4-mer enrichment
UGCC,0.697 fold
ACCU,0.663 fold
UAAA,0.983 fold
GAAU,1.33 fold
GUCG,1.39 fold
UUAG,1.02 fold
UCUA,0.737 fold
CGAA,0.971 fold

# Block 3
# Target: CCNA2, cyclin fold, Cln2 fusion (human)
# Technique: yeast growth competition, sequencing
# Sample: yeast
# Notes: strong parent motif
# Baseline: not given
# Reading: higher = stronger binding
# Starting sequence: SCAPER docking peptide (human); SNARRSLNFGGST; partner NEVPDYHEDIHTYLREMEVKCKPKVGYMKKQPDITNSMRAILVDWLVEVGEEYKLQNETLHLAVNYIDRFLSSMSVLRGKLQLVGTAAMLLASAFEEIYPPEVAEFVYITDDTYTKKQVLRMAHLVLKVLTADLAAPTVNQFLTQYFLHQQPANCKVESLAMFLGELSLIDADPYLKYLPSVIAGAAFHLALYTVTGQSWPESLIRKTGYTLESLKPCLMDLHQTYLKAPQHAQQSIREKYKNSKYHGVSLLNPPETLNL
Change,normalised enrichment score
L7G,0.524
G10S,5.43
N2P,5.01
F9G,0.338
G11W,5.71
L7I,4.57
F9Y,3.97
R4A,3.55

# Other studies, line by line
Molecule,target,test,test system,setting,how to read,measurement,value
FLSKVEETFQCICCQELVFRPITTVCQHNVCKDCLDRSFRAQVFSCPACRYDLGRSYAMQ (UHRF1 RING domain (UniProt Q96T88)),UBE2D3 UBC core domain (UniProt P61077),yeast two-hybrid,yeast,mostly zero background,"baseline: not given, higher = stronger interaction",lacZ reporter activity,0

# For quick reference, copied from above (block 2):
Oligonucleotide,4-mer enrichment
UAAA,0.983 fold
UCUA,0.737 fold
UUAG,1.02 fold
